Published values gathered from unrelated publications.
Numbered parts are unrelated; each lists some results of a single study. Changes are numbered by the printed parent chain.

Set 1
Target: CCNE1, cyclin fold, Cln2 fusion (human)
Method: yeast growth competition, sequencing
Matrix: yeast
Setting: strong parent motif
Baseline: not given
Reading: higher = stronger binding
Starting sequence: GMNC docking peptide (human); KNAKRNLSSEFAN
| Variant | normalised enrichment score |
| --- | --- |
| E10F | 0.725 |
| N6F | 0.153 |
| N2T | 1.89 |
| S8N | 2.05 |
| K4V | 2.34 |
| R5W | 0.201 |
| R5Y | 0.425 |
| R5I | 0.211 |
| N6Q | 0.376 |
| K4A | 0.34 |
| L7I | 0.247 |
| N6S | 0.367 |
| K4G | 0.036 |
| R5H | 0.292 |
| N6D | 0.644 |
| F11K | 0.0519 |
| S8Q | 1.3 |
| N6R | 0.817 |

Set 2
Target: Sal-like protein 4, full length isoform B (SALL4, Homo sapiens, UniProt Q9UJQ4-2, residues 1-616)
Method: universal PBM
Molecule type: double-stranded DNA, one strand shown
Matrix: in vitro
Tested at: not given
Setting: 8-mer, flanks averaged, mean of replicates
Reading: higher = stronger binding
| Strand | E-score |
| --- | --- |
| CCTCCGGC | -0.379 |
| AAACGGGC | -0.157 |
| CATTCCTC | -0.0301 |
| ATGAAAAA | 0.341 |
| GGGTATAC | -0.0583 |
| AGCTCAGG | -0.228 |
| ACTAGACA | 0.181 |
| CCGGACCC | -0.35 |
| CAATCAAA | 0.0942 |
| CGTGAGCA | -0.242 |
| AAGACTTC | -0.0404 |
| CTCTATGC | -0.129 |
| AGTAATGG | 0.134 |
| CCGGTGGA | -0.222 |
| TACTCTGA | 0.0883 |
| AAATGTAA | 0.291 |
| AAAGCCAA | -0.00324 |
| CTCGGTCC | -0.339 |
| CGCATCGC | -0.132 |
| GTAGGTAA | 0.0518 |
| ATTGGAGG | -0.0454 |
| ATATTTGC | 0.38 |
| GCATGTGA | 0.018 |
| GCCACAAC | 0.0935 |
| GGTAGGCA | -0.0411 |

Set 3
Target: Ras GTPase-activating protein-binding protein 1, C-terminal RGG region (G3BP1, Homo sapiens, UniProt Q13283)
UniProt Q13283, sequence (whole entry, looked up): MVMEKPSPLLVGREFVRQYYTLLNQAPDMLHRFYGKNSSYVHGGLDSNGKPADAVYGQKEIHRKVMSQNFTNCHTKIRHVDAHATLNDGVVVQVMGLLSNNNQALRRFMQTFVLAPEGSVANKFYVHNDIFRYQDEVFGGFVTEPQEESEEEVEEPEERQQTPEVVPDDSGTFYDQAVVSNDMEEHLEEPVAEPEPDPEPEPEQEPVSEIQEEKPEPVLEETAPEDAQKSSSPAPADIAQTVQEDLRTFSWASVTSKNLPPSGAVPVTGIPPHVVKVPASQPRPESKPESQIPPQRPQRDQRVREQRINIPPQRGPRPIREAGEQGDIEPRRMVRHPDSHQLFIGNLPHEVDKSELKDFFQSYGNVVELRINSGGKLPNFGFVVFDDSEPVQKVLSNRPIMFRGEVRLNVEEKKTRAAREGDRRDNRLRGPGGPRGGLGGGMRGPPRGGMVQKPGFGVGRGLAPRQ
Method: RNA Bind-n-Seq
Molecule type: RNA
Matrix: in vitro
Tested at: 1 µM
Setting: whole 134-nt RNA, ends assumed
Added: 150 mM KCl
Baseline: input library
Reading: higher = stronger binding
| Strand | log2 enrichment |
| --- | --- |
| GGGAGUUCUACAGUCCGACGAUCUCCUGUGCUACACAUCGUAUGUACCGAAUCGGGUUUUUUUGGGAAAAAAAGGGAAAGGGAAAGUAUUAUGUUACGCCGUUCGGAUCUGCAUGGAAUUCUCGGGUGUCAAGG | -0.98 |
| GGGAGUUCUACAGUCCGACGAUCCACAGACAACACGCACCCACACAGACACAGAGGGAAGGGGUUGGGGUGGGGACAGGGUGCACAGCAGGGCGGGGUAGGACCCCAGCCCCUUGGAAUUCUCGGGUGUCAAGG | 0.0078 |
| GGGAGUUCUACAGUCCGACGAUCUCAAGUCCUGUGCUACACAUCGUAUGUACCGAAUCGGUUUGGUUUGGUUUGGGGAAAGUAUUAUGUUACGCCGUUCGGAUCUGCACUUCCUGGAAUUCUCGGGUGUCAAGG | -1.15 |
| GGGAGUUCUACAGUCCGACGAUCCUCAAGUCCUGUGCUACACAUCGUAUGUACCGAAUCGGGGCGGGCGGGGCGGGGAAAGUAUUAUGUUACGCCGUUCGGAUCUGCACUUCCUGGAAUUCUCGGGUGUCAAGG | 2.03 |
| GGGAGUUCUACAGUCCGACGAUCUGGCCCUGGUGGCAUGCGGGGAGGAAGAGGUGGCCUCAUGGAUCGUGUUGGUCCCGGUGGAAUGUUCAGAGGUGGCCGUGGUGGAGACAGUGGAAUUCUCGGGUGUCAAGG | 2.07 |
| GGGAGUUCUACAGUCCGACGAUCUCAAGUCCUGUGCUACACAUCGUAUGUACCGAAUCGGGAAAGGGUGGGUUUGGGAAAGUAUUAUGUUACGCCGUUCGGAUCUGCACUUCCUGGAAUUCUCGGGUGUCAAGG | 2.03 |
| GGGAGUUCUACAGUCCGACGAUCCAAGUCCUGUGCUACACAUCGUAUGUACCGAAUCGGGGAAAGGAAAGGGGAAAGGGAAAGUAUUAUGUUACGCCGUUCGGAUCUGCACUUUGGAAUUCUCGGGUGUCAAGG | -0.0505 |
| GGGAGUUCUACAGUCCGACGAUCUGCCUCCCUGCUGCAGAAAUACACCGACAACAGCGAGAAGCCAUCCGGGAAGAGACUGUGCAAAACCAAACACUUGAUCCCUCAGGAGUCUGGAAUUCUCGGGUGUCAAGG | -0.962 |
| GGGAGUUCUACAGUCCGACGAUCCCUCAAGUCCUGUGCUACACAUCGUAUGUACCGAAUCGGGCGGCGGGCGGGGAAAGUAUUAUGUUACGCCGUUCGGAUCUGCACUUCCAGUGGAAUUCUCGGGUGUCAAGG | 0.305 |
| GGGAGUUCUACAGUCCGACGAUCAGUCCUGUGCUACACAUCGUAUGUACCGAAUCGGGGUGGGGUUUUUGGGGAAAGGGGAAAGUAUUAUGUUACGCCGUUCGGAUCUGCACUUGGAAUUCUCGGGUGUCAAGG | 1.44 |
| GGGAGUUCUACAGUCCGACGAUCUUGGCGCAUGCGCCUAAAGCUGACGGGUUUGAAAUGGCUUCGAUGUUAGCCGGGACCCGACUCAGGUGAAGGUCUGGUCCCCGUAGUUGGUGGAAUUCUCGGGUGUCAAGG | -1.27 |
| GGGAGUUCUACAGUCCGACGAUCUGGGAGGUGGAUUUUGUUUAUUUUUUUAGCUCAUUUCCAGGGGUGGGAAUUUCUUUUUAAUAUGUGUCAUGAAUAAAGUUGUUUUUGAAAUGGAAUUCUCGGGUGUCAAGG | 3.76 |
| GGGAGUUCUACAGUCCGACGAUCUGGCCCUGGUGGCAUGCGGGGAGGAAGAGGUGGCCUCAUGGAUCGUGGUGGUGCCGGUGGAAUGUUCAGAGGUGGCCGUGGUGGAGACAGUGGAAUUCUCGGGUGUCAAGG | 2.16 |
| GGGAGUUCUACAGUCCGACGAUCUGGCCUGCACAUUCAGCUGCAUGAUGAAGUUCACUGUCAAGGACUGUGAUCCCACCACUGGGGAGACUGAUGACGAAGGCUAUGAGGAUGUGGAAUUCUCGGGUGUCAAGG | -0.963 |

Set 4
Target: UBE2C UBC core domain (UniProt O00762)
Method: yeast two-hybrid
Matrix: yeast
Setting: mostly zero background
Baseline: not given
Reading: higher = stronger interaction
B1: TRIM24 RING domain (UniProt O15164); chain EAARLNLLDTCAVCHQNIQSRAPKLLPCLHSFCQRCLPAPQRYLMLPAPMLGSAETPPPVPAPGSPVSGSSPFATQVGVIRCPVCSQECAERHII
B2: TRIM43 RING domain (UniProt Q96BQ3); chain FSHAFQKELTCVICLNYLVDPVTICCGHSFCRPCLCLSWEEAQSPANCPACREPSPKMDFKT
B3: TRIM40 RING domain (UniProt Q6P9F5); chain LQKDNQEEGVCPICQESLKEAVSTNCGHLFCRVCLTQHVEKASASGVFCCPLCRKPCSEEVLG
B4: TRIM4 RING domain (UniProt Q9C037); chain EAEDIQEELTCPICLDYFQDPVSIECGHNFCRGCLHRNWAPGGGPFPCPECRHPSAPAALRP
B5: DTX4 RING domain (UniProt Q9Y2E6); chain QKVRHPPDEDCTICMERLTAPSGYKGPQPTVKPDLVGKLSRCGHVYHIYCLVAMYNNGNKDGSLQCPTCKTIYGVKTGTQ
B6: TRAF5 RING domain (UniProt O00463); chain FVERLEERYKCAFCHSVLHNPHQTGCGHRFCQHCILSLRELNTVPICPVDKEVIKSQEVFK
B7: MKRN1 RING domain (UniProt Q9UHC7); chain FAVQRSKDMVCGICMEVVYEKANPSERRFGILSNCNHTYCLKCIRKWRSAKQFESKIIKSCPECRITSNFVIPSE
Residues (chain): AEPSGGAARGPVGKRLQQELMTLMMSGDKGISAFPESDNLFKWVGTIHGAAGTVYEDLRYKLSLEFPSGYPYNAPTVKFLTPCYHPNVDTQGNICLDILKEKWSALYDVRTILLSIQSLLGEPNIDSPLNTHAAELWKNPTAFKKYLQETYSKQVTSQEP
| Molecule | lacZ reporter activity |
| --- | --- |
| B1 (TRIM24 RING domain) | 0 |
| B2 (TRIM43 RING domain) | 0 |
| B3 (TRIM40 RING domain) | 0 |
| VEPSEENSKDCVVCQNGTVNWVLLPCRHTCLCDGCVKYFQQCPMCRQFVQESFALC (CGRRF1 RING domain (UniProt Q99675)) | 0 |
| B4 (TRIM4 RING domain) | 0 |
| B5 (DTX4 RING domain) | 0 |
| MPIRALCTICSDFFDHSRDVAAIHCGHTFHLQCLIQWFETAPSRTCPQCRIQVGKRTIIN (TRAIP RING domain (UniProt Q9BWF2)) | 0 |
| FQGDVDEDLICPICSGVLEEPVQAPHCEHAFCNACITQWFSQQQTCPVDRSVVTVAHLRP (RNF41 RING domain (UniProt Q9H4P4)) | 0 |
| DHGAVGQEMCCPICCSEYVKGEVATELPCHHYFHKPCVSIWLQKSGTCPVCRCMFPPPL (PJA1 RING domain (UniProt Q8NG27)) | 0 |
| B6 (TRAF5 RING domain) | 0 |
| B7 (MKRN1 RING domain) | 0 |
| ASLPTSEEDLCPICYAHPISAVFQPCGHKSCKACINQHLMNNKDCFFCKTTIVSVEDWE (RNF123 RING domain (UniProt Q5XPI4)) | 0 |

Set 5
Target: Prothrombin, mature alpha-thrombin (F2, Homo sapiens, UniProt P00734)
Method: aptamer microarray, sandwich
Molecule type: DNA with 2'F-ANA
Matrix: in vitro
Tested at: 200 nM
Setting: whole 15-mer aptamer, many near background
Added: Cy3 exosite-II aptamer, 400 nM
Reading: higher = stronger binding
Strand: GGTTGGTGTGGTTGG
| Modification | mean fluorescence intensity [a.u.] |
| --- | --- |
| 2'F-ANA at 1 2 4 5 7 8 10 11 13 | 68.6 |
| 2'F-ANA at 3 4 9 11 14 | 271 |
| 2'F-ANA at 1 6 8 9 10 11 12 13 14 15 | 53.9 |
| 2'F-ANA at 3 9 11 15 | 990 |
| 2'F-ANA at 4 5 6 10 12 13 15 | 46.5 |
| 2'F-ANA at 1 5 6 9 11 14 | 54.3 |
| 2'F-ANA at 4 5 9 11 12 | 119 |
| 2'F-ANA at 2 3 4 5 6 8 10 11 12 14 | 52.9 |
| 2'F-ANA at 3 4 7 9 12 13 | 667 |
| 2'F-ANA at 1 4 5 7 9 10 12 15 | 46.3 |
| 2'F-ANA at 2 3 4 5 6 7 9 10 | 48.1 |
| 2'F-ANA at 3 4 5 7 11 12 15 | 141 |
| 2'F-ANA at 1 5 9 10 11 13 15 | 45.9 |
| 2'F-ANA at 3 4 6 7 10 11 15 | 227 |
| 2'F-ANA at 2 3 6 7 8 10 | 322 |
| 2'F-ANA at 1 2 3 4 9 10 11 13 14 15 | 53.4 |
| 2'F-ANA at 2 5 6 8 11 12 | 118 |
| 2'F-ANA at 2 3 4 6 9 14 | 280 |
| 2'F-ANA at 3 5 6 8 9 11 13 15 | 78.7 |
| 2'F-ANA at 1 2 4 6 7 8 11 13 15 | 87.3 |
| 2'F-ANA at 2 3 4 5 8 9 11 13 14 | 46.1 |

For quick reference, copied from above (set 5):
| Modification | mean fluorescence intensity [a.u.] |
| --- | --- |
| 2'F-ANA at 1 4 5 7 9 10 12 15 | 46.3 |
| 2'F-ANA at 2 5 6 8 11 12 | 118 |
| 2'F-ANA at 3 5 6 8 9 11 13 15 | 78.7 |
| 2'F-ANA at 3 4 5 7 11 12 15 | 141 |
| 2'F-ANA at 2 3 4 5 6 7 9 10 | 48.1 |
| 2'F-ANA at 1 5 6 9 11 14 | 54.3 |
| 2'F-ANA at 1 2 4 6 7 8 11 13 15 | 87.3 |
| 2'F-ANA at 4 5 9 11 12 | 119 |
| 2'F-ANA at 3 4 9 11 14 | 271 |
